Experimental data of several laboratories.
Each numbered part is a random draw from the data of one study; scales do not carry over between parts.

Block 1
Target: Ras GTPase-activating protein-binding protein 1, full length (G3BP1, Homo sapiens, UniProt Q13283)
Sequence of UniProt Q13283 (whole entry, looked up): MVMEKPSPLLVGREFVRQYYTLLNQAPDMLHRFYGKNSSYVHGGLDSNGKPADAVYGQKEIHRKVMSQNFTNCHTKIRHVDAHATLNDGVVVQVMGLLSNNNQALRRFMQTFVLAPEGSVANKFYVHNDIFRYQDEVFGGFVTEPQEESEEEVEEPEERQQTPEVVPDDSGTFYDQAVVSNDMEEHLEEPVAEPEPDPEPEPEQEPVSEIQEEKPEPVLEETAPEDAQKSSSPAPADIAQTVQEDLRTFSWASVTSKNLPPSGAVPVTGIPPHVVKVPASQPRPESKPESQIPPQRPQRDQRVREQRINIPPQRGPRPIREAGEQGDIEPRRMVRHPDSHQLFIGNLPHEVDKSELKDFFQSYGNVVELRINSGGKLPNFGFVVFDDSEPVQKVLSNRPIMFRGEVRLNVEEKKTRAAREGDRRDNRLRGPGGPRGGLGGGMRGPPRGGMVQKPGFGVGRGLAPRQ
Technique: RNA Bind-n-Seq
Form: RNA
Sample: in vitro
Concentration: 200 nM
Setting: whole 134-nt RNA, ends assumed
Together with: 150 mM KCl
Relative to: input library
Direction: higher = stronger binding
| Oligonucleotide | log2 enrichment |
| --- | --- |
| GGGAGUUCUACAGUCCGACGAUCUGGCCCUGGUGGCAUGCGGGGCGGAAGAGGUGGCCUCAUGGAUCGUGGUGGUCCCGGUGGAAUGUUCAGAGGUGGCCGUGGUGGAGACAGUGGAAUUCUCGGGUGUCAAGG | 0.00324 |
| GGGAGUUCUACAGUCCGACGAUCCAAGUCCUGUGCUACACAUCGUAUGUACCGAAUCGGAAAAGGAAAAGGGGAAAAGGAAAGUAUUAUGUUACGCCGUUCGGAUCUGCACUUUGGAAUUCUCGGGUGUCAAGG | -0.812 |
| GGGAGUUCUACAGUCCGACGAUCCAAGUCCUGUGCUACACAUCGUAUGUACCGAAUCGGAAAGGGAAAGGGGAAAGGGAAAGUAUUAUGUUACGCCGUUCGGAUCUGCACUUCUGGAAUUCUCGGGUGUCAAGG | -0.284 |
| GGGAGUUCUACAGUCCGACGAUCUGGGUGGUGGAUUUUGUUUAUUUUUUUAGCUCAUUUCCAGGGGUGGGAAUUUUUUUUUAAUAUGUGUCAUGAAUAAAGUUGUUUUUGAAAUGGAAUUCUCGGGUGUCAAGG | 0.407 |
| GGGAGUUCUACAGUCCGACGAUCUGGGAGGUGGAUUUUGUUUAUUUUUUUAGCUCAUUUCCAGGGGUGGGAAUUUUUUUUUAAUACGUGUCAUGAAUAAAGUUGUUUUUGAAAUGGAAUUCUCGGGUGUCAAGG | 0.153 |

Block 2
Target: Sal-like protein 4, full length isoform A (SALL4, Homo sapiens, UniProt Q9UJQ4, residues 1-1053)
Sequence of UniProt Q9UJQ4 (whole entry, looked up): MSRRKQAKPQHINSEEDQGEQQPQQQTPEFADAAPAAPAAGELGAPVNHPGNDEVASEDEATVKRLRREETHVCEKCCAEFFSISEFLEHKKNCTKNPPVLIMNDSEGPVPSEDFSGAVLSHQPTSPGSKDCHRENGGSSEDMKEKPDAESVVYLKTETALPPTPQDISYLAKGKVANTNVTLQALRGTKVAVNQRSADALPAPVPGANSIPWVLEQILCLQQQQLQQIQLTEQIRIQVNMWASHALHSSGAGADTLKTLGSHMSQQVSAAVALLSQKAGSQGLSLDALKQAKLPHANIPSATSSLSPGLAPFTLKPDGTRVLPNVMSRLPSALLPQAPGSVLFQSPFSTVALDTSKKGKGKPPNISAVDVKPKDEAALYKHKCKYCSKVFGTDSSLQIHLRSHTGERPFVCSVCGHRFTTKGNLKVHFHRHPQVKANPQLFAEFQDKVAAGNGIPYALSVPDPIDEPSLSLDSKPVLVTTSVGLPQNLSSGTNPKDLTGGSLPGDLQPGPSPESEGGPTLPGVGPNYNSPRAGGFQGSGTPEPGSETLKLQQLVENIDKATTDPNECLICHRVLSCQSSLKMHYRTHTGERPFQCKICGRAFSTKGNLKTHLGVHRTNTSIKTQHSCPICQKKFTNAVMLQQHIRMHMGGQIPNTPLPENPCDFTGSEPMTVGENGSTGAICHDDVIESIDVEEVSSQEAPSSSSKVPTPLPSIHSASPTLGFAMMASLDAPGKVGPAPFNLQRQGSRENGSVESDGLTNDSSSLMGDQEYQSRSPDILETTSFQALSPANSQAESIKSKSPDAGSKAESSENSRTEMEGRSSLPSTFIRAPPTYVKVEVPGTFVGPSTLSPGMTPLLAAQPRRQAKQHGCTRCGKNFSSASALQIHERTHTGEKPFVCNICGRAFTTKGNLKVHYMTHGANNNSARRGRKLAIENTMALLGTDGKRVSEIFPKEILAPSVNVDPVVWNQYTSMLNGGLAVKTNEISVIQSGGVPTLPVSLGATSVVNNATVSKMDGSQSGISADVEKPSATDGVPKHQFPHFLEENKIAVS
Technique: universal PBM
Form: double-stranded DNA, one strand shown
Sample: in vitro
Concentration: 600 nM
Setting: 8-mer, flanks averaged, mean of replicates
Direction: higher = stronger binding
| Oligonucleotide | E-score |
| --- | --- |
| CCCGTATA | 0.0778 |
| AGCAAAGA | 0.042 |
| CGCCTACG | -0.246 |
| CTATGACA | 0.167 |
| ACAACACG | 0.0101 |

Block 3
Target: RNA binding protein fox-1 homolog 2, RRM domain, GST-SBP tag (RBFOX2, Homo sapiens, UniProt O43251-10, residues 100-194)
Technique: RNA Bind-n-Seq
Form: RNA
Sample: in vitro
Concentration: 365 nM
Setting: natural RNA segment, single round, ends assumed
Relative to: no-protein control
Direction: higher = stronger binding
Construct (chain): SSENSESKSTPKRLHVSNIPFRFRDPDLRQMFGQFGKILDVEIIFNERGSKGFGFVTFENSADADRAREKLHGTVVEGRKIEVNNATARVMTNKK
| Oligonucleotide | RBNS enrichment (R) |
| --- | --- |
| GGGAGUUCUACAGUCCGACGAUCUCUCCCAUCCUAAGCUGUUCAUUUUAAGAUGUGGCAGAGUAAAGUGGUUUUUCCUAACUUACUUGCUAUCAACAUACCACUGGAAAAAAUCUCUGAGGUAUCAAAGAAUUUGGAAUUCUCGGGUGCCAA | 0.278 |
| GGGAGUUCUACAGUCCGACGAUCCUGCCCAAUUUUAAAGUUAUUCUUUUUGGGAGUGAGACAGGAUUAACUAAACAAGUUUGUGUUUUUUAAACCUUGGGCAUUUCAGAGAAAGAGCUGGUCUGGAGUGUCUCUGGAAUUCUCGGGUGCCAA | 1.36 |
| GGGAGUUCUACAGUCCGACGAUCAUUGCCUUGCCUUUAUUACAUGUACAUUUUGAAUUCUGUGACCAGUGAUUUGGGUUUUAUUUUGUAUUUGCAGGGUUUGUCAUUAAUAAUUAAUGCCCCUCUCUUACAGAUGGAAUUCUCGGGUGCCAA | 0.572 |
| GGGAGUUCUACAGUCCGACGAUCGGAGGCUGGGCCAGGAGGCAGCCUCCGAACCAUGCCCCAUAUAACGCUUGGGUGCGUGGGAGGGCGCACAUCAGGGCAGAGGCCAAGUUCCAGGUGUCUGUGUUCCCAGGUGGAAUUCUCGGGUGCCAA | 0.948 |
| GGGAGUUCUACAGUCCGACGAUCCAGAAAAGAGCCGGAGCUCUAAUGCAGGCUGUGUGGCCGCCCUUGUCUUAGGCUCAUUUGUUCCUUACCAUUUUGUCGAGGUUUUUUGGGGGGUAGUGACAGAAUCCCUGUGGAAUUCUCGGGUGCCAA | 0.556 |
| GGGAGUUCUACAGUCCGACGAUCCCUCUGCAUCUGCUGAACUGAACAAACUAUCAGAGGAAAGGAAGUGGGACUGGCACUAUUUGAGGUUAAGACAAACUGCAUAUGUACUUCAAUUGCUUUGCACUUUUCCGUGGAAUUCUCGGGUGCCAA | 0.875 |

Further values, each from its own experiment
| Substance | target | assay | test system | conditions | how to read | endpoint | result |
| --- | --- | --- | --- | --- | --- | --- | --- |
| PhoQ, residues 284 288 289 292 302 303 HSSMNL | PhoP, residues 12 14 15 18 19 LFHKL (Escherichia coli, UniProt P23836) | Sort-seq, measured: YFP reporter | E. coli | PhoQ-PhoP variant library, together with: 10 µM Mg2+ | relative to: high Mg2+ state, higher = stronger signaling | fold induction | 7.37 |

Some of these lines once more (block 1):
| Oligonucleotide | log2 enrichment |
| --- | --- |
| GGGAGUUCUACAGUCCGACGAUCUGGGUGGUGGAUUUUGUUUAUUUUUUUAGCUCAUUUCCAGGGGUGGGAAUUUUUUUUUAAUAUGUGUCAUGAAUAAAGUUGUUUUUGAAAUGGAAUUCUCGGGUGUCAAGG | 0.407 |
| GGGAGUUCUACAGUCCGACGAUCUGGGAGGUGGAUUUUGUUUAUUUUUUUAGCUCAUUUCCAGGGGUGGGAAUUUUUUUUUAAUACGUGUCAUGAAUAAAGUUGUUUUUGAAAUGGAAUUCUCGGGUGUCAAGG | 0.153 |
